Experimental data of several laboratories.
Medium: plasma

SMILES = CCCC[C@@H]1NC(=O)[C@H](Cc2ccc(O)cc2)NC(=O)[C@@H]2CCCN2C(=O)[C@H](CC(=O)O)NC(=O)[C@H](C)NC(=O)[C@H](Cc2ccccc2)NC(=O)[C@@H]2CSCCC(=O)N3CN(CN(C3)C(=O)CCSC[C@@H](C(=O)N[C@@H](C)C(N)=O)NC1=O)C(=O)CCSC[C@H](NC(C)=O)C(=O)N[C@@H](CC(C)(C)C)C(=O)N1CCC[C@H]1C(=O)N[C@@H](CCC(=O)O)C(=O)N[C@H](CCCCNC(=O)CCc1cn(CCOCCOCCOCCN(CCOCCOCCOCCC(=O)N[C@H]3CSCCC(=O)N4CN5CN(C4)C(=O)CCSC[C@H](NC(=O)[C@@H](CC(=O)O)NC(=O)[C@H](Cc4cccc6ccccc46)NC(=O)[C@@H]4CCCN4C3=O)C(=O)N[C@@H](CCSC)C(=O)N[C@@H](CCCCNC(=N)N)C(=O)N[C@@H](CC(=O)O)C(=O)N[C@@H](Cc3c[nH]c4ccccc34)C(=O)N[C@@H](CO)C(=O)N[C@@H]([C@@H](C)O)C(=O)N3CCC[C@H]3C(=O)N3C[C@H](O)C[C@H]3C(=O)N[C@@H](Cc3c[nH]c4ccccc34)C(=O)N[C@H](C(N)=O)CSCCC5=O)CCOCCOCCOCCn3cc(CCC(=O)NCCCC[C@H]4NC(=O)[C@H](CCC(=O)O)NC(=O)[C@@H]5CCCN5C(=O)[C@H](CC(C)(C)C)NC(=O)[C@@H](NC(C)=O)CSCCC(=O)N5CN6CN(C5)C(=O)CCSC[C@H](NC(=O)[C@H](Cc5ccc(O)cc5)NC(=O)[C@@H]5CCCN5C4=O)C(=O)N[C@@H](Cc4ccccc4)C(=O)N[C@@H](C)C(=O)N[C@@H](CC(=O)O)C(=O)N4CCC[C@H]4C(=O)N[C@@H](Cc4ccc(O)cc4)C(=O)N[C@@H](CCCC)C(=O)N[C@H](C(=O)N[C@@H](C)C(N)=O)CSCCC6=O)nn3)nn1)C(=O)N1CCC[C@H]1C(=O)N[C@@H](Cc1ccc(O)cc1)C(=O)N2; species = rat; route = intravenous; dose = 2 mg/kg; half-life = 3.6 h
SMILES = CC(C)C[C@@H](N)C(=O)NCC(=O)N[C@H](C)C(=O)N[C@H](CO)C(=O)N[C@H](Cc1c[nH]c2ccccc12)C(=O)N[C@H](Cc1c[nH]cn1)C(=O)N[C@H](CCCNC(=N)N)C(=O)N1CCC[C@@H]1C(=O)N[C@H](CC(=O)O)C(=O)N[C@H](CCCCN)C(=O)N[C@H](CS)C(=O)N[C@H](CS)C(=O)N[C@H](CC(C)C)C(=O)NCC(=O)N[C@H](Cc1ccc(O)cc1)C(=O)N[C@H](CCC(N)=O)C(=O)N[C@H](CCCCN)C(=O)N[C@H](CCCNC(=N)N)C(=O)N1CCC[C@@H]1C(=O)N[C@H](CC(C)C)C(=O)N1CCC[C@@H]1C(N)=O; species = male Sprague-Dawley rat; route = subcutaneous; dose = 10 mg/kg; setting = single dose; half-life = 8.7 h
SMILES = CCOC(=O)[C@@H]1Cc2c(cc([N+](=O)[O-])cc2[N+](=O)[O-])[C@H](O)[C@]12C(=O)Nc1ccc(Br)cc12; species = Sprague-Dawley rat; route = intravenous; dose = 7.5 mg/kg; half-life = 1.85 h
SMILES = Cc1cc(Nc2nc(C[C@@]3(C(=O)O)CCN(Cc4cccc(Cl)c4F)[C@H](C)C3)cc(C)c2F)n[nH]1; species = Sprague-Dawley rat; route = oral; dose = 0.5 mg/kg; setting = single dose; half-life = 4.36 h
SMILES = C/C=C/C=C/C/C=C/CCCCCCCc1cccc(O)c1O; species = male Wistar rat; route = intravenous; dose = 20 mg/kg; half-life = 1.1 h
SMILES = C[C@]12CC[C@H](OC(=O)NC3CCNCC3)C[C@H]1CC[C@@H]1[C@@H]2CC[C@]2(C)[C@@H](c3ccc(=O)oc3)CC[C@]12O; species = male Sprague-Dawley rat; route = intravenous; dose = 5 mg/kg; setting = single dose; half-life = 4.59 h
SMILES = c1ccc(C2(CCNC3CCC4(SCCS4)c4ccccc43)CCOC3(CCCC3)C2)nc1 (stereo not drawn); species = Sprague-Dawley rat; route = intravenous; dose = 0.15 mg/kg; half-life = 1.13 h
SMILES = C[C@@](O)(C(F)F)[C@H](NC(=O)c1ccc(C#CC#CC2CC2)cc1)C(=O)NO; species = rat; route = intravenous; dose = 40 mg/kg; half-life = 1.6 h
SMILES = CCN(C)C(=O)Oc1ccccc1/C=C1\Cc2cc(OC)c(OC)cc2C1=O; species = male Sprague-Dawley rat; route = oral; dose = 100 mg/kg; setting = single dose; half-life = 5.07 h

A few entries again:
SMILES = CCCC[C@@H]1NC(=O)[C@H](Cc2ccc(O)cc2)NC(=O)[C@@H]2CCCN2C(=O)[C@H](CC(=O)O)NC(=O)[C@H](C)NC(=O)[C@H](Cc2ccccc2)NC(=O)[C@@H]2CSCCC(=O)N3CN(CN(C3)C(=O)CCSC[C@@H](C(=O)N[C@@H](C)C(N)=O)NC1=O)C(=O)CCSC[C@H](NC(C)=O)C(=O)N[C@@H](CC(C)(C)C)C(=O)N1CCC[C@H]1C(=O)N[C@@H](CCC(=O)O)C(=O)N[C@H](CCCCNC(=O)CCc1cn(CCOCCOCCOCCN(CCOCCOCCOCCC(=O)N[C@H]3CSCCC(=O)N4CN5CN(C4)C(=O)CCSC[C@H](NC(=O)[C@@H](CC(=O)O)NC(=O)[C@H](Cc4cccc6ccccc46)NC(=O)[C@@H]4CCCN4C3=O)C(=O)N[C@@H](CCSC)C(=O)N[C@@H](CCCCNC(=N)N)C(=O)N[C@@H](CC(=O)O)C(=O)N[C@@H](Cc3c[nH]c4ccccc34)C(=O)N[C@@H](CO)C(=O)N[C@@H]([C@@H](C)O)C(=O)N3CCC[C@H]3C(=O)N3C[C@H](O)C[C@H]3C(=O)N[C@@H](Cc3c[nH]c4ccccc34)C(=O)N[C@H](C(N)=O)CSCCC5=O)CCOCCOCCOCCn3cc(CCC(=O)NCCCC[C@H]4NC(=O)[C@H](CCC(=O)O)NC(=O)[C@@H]5CCCN5C(=O)[C@H](CC(C)(C)C)NC(=O)[C@@H](NC(C)=O)CSCCC(=O)N5CN6CN(C5)C(=O)CCSC[C@H](NC(=O)[C@H](Cc5ccc(O)cc5)NC(=O)[C@@H]5CCCN5C4=O)C(=O)N[C@@H](Cc4ccccc4)C(=O)N[C@@H](C)C(=O)N[C@@H](CC(=O)O)C(=O)N4CCC[C@H]4C(=O)N[C@@H](Cc4ccc(O)cc4)C(=O)N[C@@H](CCCC)C(=O)N[C@H](C(=O)N[C@@H](C)C(N)=O)CSCCC6=O)nn3)nn1)C(=O)N1CCC[C@H]1C(=O)N[C@@H](Cc1ccc(O)cc1)C(=O)N2; species = rat; route = intravenous; dose = 2 mg/kg; half-life = 3.6 h
